Results of several laboratories.
Each line is one published result; not all experiments were run side by side.
Technique: steady-state kinetics
B1: nitrilase (Rhodococcus rhodochrous, UniProt A4LA85); chain MVEYTNTFKVAAVQAQPVWFDAAKTVDKTVSIIAEAARNGCELVAFPEVFIPGYPYHIWVDSPLAGMAKFAVRYHENSLTMDSPHVQRLLDAARDHNIAVVVGISERDGGSLYMTQLIIDADGQLVARRRKLKPTHVERSVYGEGNGSDISVYDMPFARLGALNCWEHFQTLTKYAMYSMHEQVHVASWPGMSLYQPEVPAFGVDAQLTATRMYALEGQTFVVCTTQVVTPEAHEFFCENEEQRKLIGRGGGFARIIGPDGRDLATPLAEDEEGILYADIDLSAITLAKQAADPVGHYSRPDVLSLNFNQRRTTPVNTPLSTIHATHTFVPQFGALDGVRELNGADEQRALPSTHSDETDRATASI
B2: enzyme Q449A (Limosilactobacillus reuteri, UniProt Q8GP32); chain SADTNIENNDSSTVQVTTGDNDIAVKSVTLGSGQVSAASDTTIRTSANANSASSAANTQNSNSQVASSAAITSSTSSAASSNNTDSKAAQENTNTAKNDDTQKAAPANESSEAKNEPAVNVNDSSAAKNDDQQSSKKNTTAKLNKDAENVVKKAGIDPNSLTDDQIKALNKMNFSKAAKSGTQMTYNDFQKIADTLIKQDGRYTVPFFKASEIKNMPAATTKDAQTNTIEPLDVWDSWPVQDVRTGQVANWNGYQLVIAMMGIPNQNDNHIYLLYNKYGDNELSHWKNVGPIFGYNSTAVSQEWSGSAVLNSDNSIQLFYTRVDTSDNNTNHQKIASATLYLTDNNGNVSLAQVANDHIVFEGDGYYYQTYDQWKATNKGADNIAMRDAHVIEDDNGDRYLVFEASTGLENYAGEDQIYNWLNYGGDDAFNIKSLFRILSNDDIKSRATWANAAIGILKLNKDEKNPKVAELYSPLISAPMVSDEIERPNVVKLGNKYYLFAATRLNRGSNDDAWMNANYAVGDNVAMVGYVADSLTGSYKPLNDSGVVLTASVPANWRTATYSYYAVPVAGKDDQVLVTSYMTNRNGVAGKGMDSTWAPSFLLQINPDNTTTVLAKMTNQGDWIWDDSSENLDMIGDLDSAALPGERDKPVDWDLIGYGLKP
B3: enzyme R237A (Acetivibrio thermocellus, UniProt A3DJ38); chain MKLTIPELSLVVLIGSSGSGKSTFAKKHFKPTEVISSDFCRGLVSDDENDQTVTGAAFDVLHYIVSKRLQLGKLTVVDATNVQESARKPLIEIAKDYHCFPVAVVFNLPEKVCQERNKNRTDRQVEEYVIRKHTQQLKKSIKGLQREGFRYVYILNSPEEVEEVVFERQPLWNNKKDEHGPFDIIGDIHGCYDELKMLLEKLGYLIEEVEGGVGSGKYRVTHPEGRKVLFLGDLVDAGPKITEVLKLVMGMVKSGIALCVPGNHDVKLLRKLNGRDVQITHGLDRTLEQLAKEPQEFIEEVKAFIDGLVSHYVLDDGKLVVAHAGMKEEFQGRGSGKVREFALYGETTGETDEYGLPVRYDWASDYRGKALVVYGHTPQAEVLKVNNTINIDTGCVFGGKLTAYRYPEREIVDVKALKTYYEPAKPFLPKEDMAERFEARTDNDILDINDVLGKKIITTRLMSSITIHEENSIAALEVMSRFAADPHWLIYLPPTMSPCETSKKEGMLEHPIEAFEYFRTRGVGKVVCEQKHMGSRAVVIVCKDSQVAEKRFGVLDGTAGICYTRTGRHFFDDMQLEAELIDRVRKVLDKSGFWGDFNTDWVCLDCELMPWSAKAQKLLEEQYSAVGISGRVVLDEAVKLLKQASLNKTVSFDVSRQTSGKNADINELLQRFTERSEMMQKYVEAYRKYCWPVNSIDDLKLAPFHILATEGKVHSDKNHIWHMDTIAKYCTQDDSLIMATNHILVDVTDAESVDKGIKWWEDLTASGGEGMVVKPYDFIVKNGRELLQPAVKCRGREYLRIIYGPEYTMDENIERLRNRAVGKKRSLALREFSLGMEALERFVRNEPLYRVHECVFGVLALESEPVDPRL
B4: SLC10A2 (Homo sapiens, UniProt Q12908); chain MNDPNSCVDNATVCSGASCVVPESNFNNILSVVLSTVLTILLALVMFSMGCNVEIKKFLGHIKRPWGICVGFLCQFGIMPLTGFILSVAFDILPLQAVVVLIIGCCPGGTASNILAYWVDGDMDLSVSMTTCSTLLALGMMPLCLLIYTKMWVDSGSIVIPYDNIGTSLVSLVVPVSIGMFVNHKWPQKAKIILKIGSIAGAILIVLIAVVGGILYQSAWIIAPKLWIIGTIFPVAGYSLGFLLARIAGLPWYRCRTVAFETGMQNTQLCSTIVQLSFTPEELNVVFTFPLIYSIFQLAFAAIFLGFYVAYKKCHGKNKAEIPESKENGTEPESSFYKANGGFQPDEK
B5: enzyme (Acinetobacter baumannii, UniProt A0A334FGR6); chain MKELIIVGAGGHGNEISWLAKRCGRVVRGFLDNTVEKQGTFIRDIPVLGTLDECSKFTDCDFVIAIGSPRARKKIIEHFFPEGEFTFATLIDPTATIGENIHIEEGTMICAGGILTVDVKLGKHCIVNTNAVLSHGVILGDYVTVAPNASISGDVSLGNIVEIGANATIREKVSVQDGAMVGMGSVVIRNILSNQVVVGNPAKLLKVIE
B6: nitrilase Y142F (Rhodococcus rhodochrous, UniProt A4LA85); chain MVEYTNTFKVAAVQAQPVWFDAAKTVDKTVSIIAEAARNGCELVAFPEVFIPGYPYHIWVDSPLAGMAKFAVRYHENSLTMDSPHVQRLLDAARDHNIAVVVGISERDGGSLYMTQLIIDADGQLVARRRKLKPTHVERSVFGEGNGSDISVYDMPFARLGALNCWEHFQTLTKYAMYSMHEQVHVASWPGMSLYQPEVPAFGVDAQLTATRMYALEGQTFVVCTTQVVTPEAHEFFCENEEQRKLIGRGGGFARIIGPDGRDLATPLAEDEEGILYADIDLSAITLAKQAADPVGHYSRPDVLSLNFNQRRTTPVNTPLSTIHATHTFVPQFGALDGVRELNGADEQRALPSTHSDETDRATASI
B7: enzyme N249W (Thermobifida fusca, UniProt Q47RK4); chain MTDVYILDAVRTPFGRYGGALSGIRPDDLAAHVLRALAERSPGLDPAAVDDVFFGDANGAGEDNRNVARMAALLAGWPTSVPGVTLNRLCGSGMESVIAANRAIAVGDASLAVAGGVESMSRAPWVLPKPAQGFPTGHETLYSTTLGWRMVNPAMPEQWTVSLGESTEQVAATYGISRAEQDAFALRSHERAARAWAEGVFDAEITQIPGAELERDESIRETSAEKLAALKPAFRPDGTITAGNASPLWDGAAALLIGDAAAAERVGREPLARIVSRGVAAVDPDVFGIGPVQAAEIALRRAGIGWDDLSVVELNEAFAAQSLACLKLWPDLDPEIVNPNGGAIAIGHPLGASGARIVGTLAHELHRRGGGWGLAAICIGVGQGLAVVLHR
B8: TcC (Trypanosoma cruzi, UniProt Q4DGA3); chain MPREYEFAEKILFTEEEIRTRIMEVAKRIADDYKGKGLRPYVNPLVLISVLKGSFMFTADLCRALSDFNVPVRMEFICVSSYGEGVTSSGQVRMLLDTRHSIEGHHVLIVEDIVDTALTLNYLYHMYFTRRPASLKTVVLLDKREGRRVPFSADYVVANIPNAFVIGYGLDYDDTYRELRDIVVLRPEVYAEREAARQKKQRAIGSADTDRDAKREFHSKY
B9: protein A329L (Streptomyces toyocaensis, UniProt Q8KLK7); chain MTTVLPPLEDTDGLWAALTEAAASVEKLLATLPEHGARSSAERAEIAAAHDAARALRVRFLDTHADAVYDRLTDHRRVHLRLAELVEAAATAFPGLVPTQQQLAVERSLPQAAKEGHEIDQGIFLRAVLRSPLAGPHLLDAMLRPTPRALELLPEFVRTGEVEMEAVHLERRDGVARLTMCRDDRLNAEDGQQVDDMETAVDLALLDPGVRVGLLRGGVMSHPRYRGKRVFSAGINLKYLSQGGISLVDFLMRRELGYIHKLVRGVLTNDDRPGWWHSPRIEKPWVAAVDGFAIGGGAQLLLVFDRVLASSDAYFSLPAAKEGIIPGALNLRLGRFAGPRVSRQVILEGRRIWAKEPEARLLVDEVVEPDELDAAIERSLTRLDGDAVLANRRMLNLADESPDGFRAYMAEFALMQALRLYGHDVIDKVGRFGGRPPA
B10: enzyme (Streptococcus pyogenes, UniProt Q5XDW3); chain VVKVGINGFGRIGRLAFRRIQNIEGVEVTRINDLTDPNMLAHLLKYDTTQGRFDGTVEVKEGGFEVNGNFIKVSAERDPENIDWATDGVEIVLEATGFFAKKEAAEKHLHANGAKKVVITAPGGNDVKTVVFNTNHDILDGTETVISGASCTTNCLAPMAKALHDAFGIQKGLMTTIHAYTGDQMILDGPHRGGDLRRARAGAANIVPNSTGAAKAIGLVIPELNGKLDGAAQRVPVPTGSVTELVVTLDKNVSVDEINAAMKAASNDSFGYTEDPIVSSDIVGVSYGSLFDATQTKVMEVDGSQLVKVVSWYDNEMSYTAQLVRTLEYFAKIAK
B11: enzyme (Bacillus pumilus, UniProt A8FFI9); chain EARSIAWSVDEFFKNREGTFVIQEVKEKSPWVYNKKRAKERFAPQSTFKVANALIGLQTGAVRDEYDIKYWDGVKREIDNWNRDHTLGSGMRDSVVWYYQAMARDIGEERMNHWVKAIHYGNKDISGGIDQFWLSSTLRISPIEQVRFLKQLYEETLPFDLKNMRTVKRMMVQEEEKHATLYGKTGSGSDIGWYVGFIKHEHKTYILATNIKGTGIEAKDITYRILKKYHLMEASV
UniProt P22303, sequence (whole entry, looked up): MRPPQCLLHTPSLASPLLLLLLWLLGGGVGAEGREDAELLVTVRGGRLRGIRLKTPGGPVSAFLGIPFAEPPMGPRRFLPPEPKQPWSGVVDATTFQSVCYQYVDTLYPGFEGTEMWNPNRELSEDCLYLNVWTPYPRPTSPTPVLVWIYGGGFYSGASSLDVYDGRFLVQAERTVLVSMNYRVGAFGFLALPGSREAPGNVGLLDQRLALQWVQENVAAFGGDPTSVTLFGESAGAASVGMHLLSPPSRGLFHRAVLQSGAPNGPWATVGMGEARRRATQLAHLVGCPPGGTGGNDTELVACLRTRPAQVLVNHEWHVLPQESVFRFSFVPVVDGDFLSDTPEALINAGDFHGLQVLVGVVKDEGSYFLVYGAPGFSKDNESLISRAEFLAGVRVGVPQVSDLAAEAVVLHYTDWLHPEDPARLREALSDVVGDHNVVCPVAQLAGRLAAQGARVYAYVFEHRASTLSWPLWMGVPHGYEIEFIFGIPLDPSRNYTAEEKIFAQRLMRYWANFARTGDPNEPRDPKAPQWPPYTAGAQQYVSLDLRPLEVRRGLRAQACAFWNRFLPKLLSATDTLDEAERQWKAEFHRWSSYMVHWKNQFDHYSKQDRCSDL

| Substance | substrate | system | conditions | Km [µM] |
| --- | --- | --- | --- | --- |
| B1 (nitrilase) | N#Cc1ccccn1 |  | pH 7.5, 25 °C | 1530 |
| protein I196L (UniProt Q52060) | CC=O | lysate | not purified, together with: CoA, NAD+ | 20300 |
| B2 (enzyme Q449A) | OC[C@H]1O[C@@](CO)(O[C@H]2O[C@H](CO)[C@@H](O)[C@H](O)[C@H]2O)[C@@H](O)[C@@H]1O |  | pH 5.5, 50 °C, apparent | 21000 |
| B3 (enzyme R237A) | Nc1ncnc2c1ncn2[C@@H]1O[C@H](CO)[C@H]2OP(=O)(O)O[C@H]21 |  | pH 7.5, 45 °C | 77000 |
| B4 (SLC10A2) | C[C@H](CCC(=O)NCCS(=O)(=O)O)[C@H]1CC[C@H]2[C@@H]3[C@H](O)C[C@@H]4C[C@H](O)CC[C@]4(C)[C@H]3C[C@H](O)[C@]12C |  | pH 6.8, 37 °C, not purified | 4.84 |
| B5 (enzyme) | Cc1cn([C@H]2C[C@H](O)[C@@H](COP(=O)(O)OP(=O)(O)O[C@H]3O[C@H](C)[C@@H](N)[C@H](O)[C@H]3O)O2)c(=O)[nH]c1=O |  | pH 7.5 | 290 |
| enzyme (Campylobacter jejuni, UniProt Q0P9V0) | N=C(N)NCCCCN |  | pH 7, 37 °C | 70 |
| ACHE (Homo sapiens, UniProt P22303) | CC(=O)SCCC[N+](C)(C)C |  | pH 7, 25 °C, apparent | 330 |
| B6 (nitrilase Y142F) | N#Cc1ccccn1 |  | pH 7.5, 25 °C | 1560 |
| B7 (enzyme N249W) | CC(C)(COP(=O)(O)OP(=O)(O)OC[C@H]1O[C@@H](n2cnc3c(N)ncnc32)[C@H](O)[C@@H]1OP(=O)(O)O)[C@@H](O)C(=O)NCCC(=O)NCCSC(=O)CC(=O)O |  | pH 7.4, 37 °C | 2890 |
| protein (Micromonospora echinospora, UniProt Q8KND2) | CC(=O)NCCSC(=O)c1c(C)cc(O)cc1O |  | pH 8, 35 °C | 1270 |
| B8 (TcC) | Oc1ncnc2[nH]ncc12 |  | pH 8.3, 37 °C, apparent, together with: PRPP 1 mM, MgCl2 12 mM | 213 |
| azu N36H/Q28H/Q34H (Pseudomonas aeruginosa) | O=NO |  | pH 6.35 | 46000 |
| B9 (protein A329L) | CC(C)(COP(=O)(O)OP(=O)(O)OC[C@H]1O[C@@H](n2cnc3c(N)ncnc32)[C@H](O)[C@@H]1OP(=O)(O)O)[C@@H](O)C(=O)NCCC(=O)NCCSC(=O)Cc1cc(O)cc(O)c1 |  | pH 7.5, 24 °C, together with: O2 | 6.6 |
| B10 (enzyme) | NC(=O)c1ccc[n+]([C@@H]2O[C@H](COP(=O)(O)OP(=O)(O)OC[C@H]3O[C@@H](n4cnc5c(N)ncnc54)[C@H](O)[C@@H]3O)[C@@H](O)[C@H]2O)c1 |  | pH 8.6 | 157 |
| B11 (enzyme) | [H][C@]12SCC(COC(C)=O)=C(C(=O)O)N1C(=O)[C@H]2NC(=O)CCC[C@@H](N)C(=O)O |  | pH 7 | 200 |

Repeated from above:
| Substance | substrate | system | conditions | Km [µM] |
| --- | --- | --- | --- | --- |
| B4 (SLC10A2) | C[C@H](CCC(=O)NCCS(=O)(=O)O)[C@H]1CC[C@H]2[C@@H]3[C@H](O)C[C@@H]4C[C@H](O)CC[C@]4(C)[C@H]3C[C@H](O)[C@]12C |  | pH 6.8, 37 °C, not purified | 4.84 |
| B5 (enzyme) | Cc1cn([C@H]2C[C@H](O)[C@@H](COP(=O)(O)OP(=O)(O)O[C@H]3O[C@H](C)[C@@H](N)[C@H](O)[C@H]3O)O2)c(=O)[nH]c1=O |  | pH 7.5 | 290 |
